Results collected from several papers.
Compare with care: the assays were run in different laboratories. ± gives the spread as reported.
Target: Cytochrome P450 3A4 (CYP3A4, Homo sapiens, UniProt P08684)
UniProt P08684, sequence (whole entry, looked up): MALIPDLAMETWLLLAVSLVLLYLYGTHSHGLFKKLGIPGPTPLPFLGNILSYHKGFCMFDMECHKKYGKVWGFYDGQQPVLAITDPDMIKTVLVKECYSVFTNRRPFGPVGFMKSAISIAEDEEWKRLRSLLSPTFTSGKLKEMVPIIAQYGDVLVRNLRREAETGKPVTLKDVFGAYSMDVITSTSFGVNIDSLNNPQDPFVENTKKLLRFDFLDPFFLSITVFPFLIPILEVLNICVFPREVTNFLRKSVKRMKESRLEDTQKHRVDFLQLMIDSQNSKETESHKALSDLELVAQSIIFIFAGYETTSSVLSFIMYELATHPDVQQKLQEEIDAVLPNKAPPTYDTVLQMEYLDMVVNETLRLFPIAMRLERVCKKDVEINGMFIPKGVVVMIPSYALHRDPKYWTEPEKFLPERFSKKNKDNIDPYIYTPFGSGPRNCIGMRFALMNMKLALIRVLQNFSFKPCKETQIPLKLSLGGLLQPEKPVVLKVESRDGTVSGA

| Structure (SMILES) | test | test system | setting | endpoint | value |
| --- | --- | --- | --- | --- | --- |
| CCOC(=O)[C@@]12C[C@@H]1[C@@H](n1ccc3c(NC)nc(C#Cc4ccc(Cl)s4)nc31)[C@H](O)[C@@H]2O | enzyme activity, inhibitor | human liver microsomes | 10 min, pH 7.4, added: midazolam | IC50 | 10.7 µM |
| COc1cc2c(c(OC)c1OC)-c1c(cc3c(c1OC)OCO3)[C@H](OC(=O)c1ccccc1)[C@@](C)(O)[C@@H](C)C2 | midazolam 1'-hydroxylation, inhibitor, recombinant enzyme | – | 15 min, pH 7.4, added: midazolam 5 µM | IC50 | 0.19 ± 0.09 µM |
| CCOc1cc(-c2nncn2C)ccc1Nc1ncc2cc(C)nc(NCC(C)(C)C)c2n1 | inhibitor | human liver microsomes | added: midazolam substrate | IC50 | > 50 µM |
| COc1cc2c(c(OC)c1OC)-c1c(cc3c(c1OC)OCO3)C[C@H](C)[C@](C)(O)[C@H]2OC(=O)c1ccccc1 | midazolam 1'-hydroxylation, inhibitor, recombinant enzyme | – | 15 min, pH 7.4, added: midazolam 5 µM | IC50 | 0.059 ± 0.03 µM |
| NC/C(=C\F)COc1cccc(Cn2c(=S)[nH]c(=O)c3[nH]cnc32)c1 | enzyme activity, inhibitor | – | CYP3A4 screen | IC50 | > 10 µM |
| Cc1cc(O[C@@H]2CCOC2)cc(C(=O)Nc2ccc(F)cn2)n1 | inhibitor | – | – | IC50 | > 30 µM |
| OCc1ccc(-c2nn(Cc3ccccc3)c3ccccc23)o1 | enzyme activity, time-dependent inhibitor | pooled human liver microsomes | 0 min, preincubation with NADH, added: testosterone | IC50 | 22.2 µM |
| CCC(C)(C)C(=O)O[C@H]1C[C@@H](C)C=C2C=C[C@H](C)[C@H](CC[C@@H](O)C[C@@H](O)CC(=O)O)[C@H]21 | inhibitor | – | added: BFC substrate | IC50 | 10.7 µM |
| C=C(F)C(=O)N1CCN(c2nc(OC[C@@H]3CCCN3C)nc3c2CCN(c2cccc4cccc(Cl)c24)C3)C[C@@H]1CC#N | enzyme activity, competitive inhibitor | human liver microsomes | – | Ki | 8.2 µM |
| O=C(NCCN1CCCC1)c1cc(-c2ccc(CN3CCOCC3)cc2)nc2ccc(F)cc12 | inhibitor | pooled human liver microsomes | metabolism-dependent inhibition, added: midazolam | IC50 | > 100 µM |
